Experimental data pooled from the literature.
Each line is one published result; not all experiments were run side by side.
Organism: Acinetobacter baumannii

SMILES | method | strain | sample | time | temperature | setting | MIC
Oc1c(Br)cc(Br)c2nc3cc(C(F)(F)F)ccc3nc12 | broth microdilution | ATCC 1794 |  |  |  |  | 7.88 µg/mL
CN[C@H](CC(C)C)C(=O)N[C@H]1C(=O)N[C@@H](CC(N)=O)C(=O)N[C@H]2C(=O)N[C@H]3C(=O)N[C@H](C(=O)N[C@H](C(=O)O)c4cc(O)cc(O)c4-c4cc3ccc4O)[C@H](O)c3ccc(c(Cl)c3)Oc3cc2cc(c3O[C@@H]2O[C@H](CO)[C@@H](O)[C@H](O)[C@H]2O[C@H]2C[C@](C)(NCc3ccc(OCc4cn(CC(=O)N[C@H](C(=O)N[C@@H](CCN)C(=O)N[C@H]5CCNC(=O)[C@H]([C@@H](C)O)NC(=O)[C@H](CCN)NC(=O)[C@H](CCN)NC(=O)[C@H](CC(C)C)NC(=O)[C@@H](CC(C)C)NC(=O)[C@H](CCN)NC5=O)[C@@H](C)O)nn4)c(OC)c3)[C@H](O)[C@H](C)O2)Oc2ccc(cc2Cl)[C@H]1O | broth microdilution | BAA-747 |  |  |  |  | 12 µM
CCCCCCCC(=O)N[C@@H](CCN)C(=O)N[C@H](C(=O)N[C@@H](CCN)C(=O)N[C@H]1CCNC(=O)[C@H](C)NC(=O)[C@H](CCN)NC(=O)[C@H](CCN)NC(=O)[C@H](CC(C)C)NC(=O)[C@@H](Cc2ccccc2)NC(=O)[C@H](CCN)NC1=O)[C@@H](C)O | CLSI broth microdilution | 246-01-C.246 | CAMHB | 20 h | 37 °C |  | 1 µg/mL
CC[C@H](C)[C@H](NC(=O)[C@H](Cc1c[nH]c2ccccc12)NC(=O)[C@H](Cc1ccc(O)cc1)NC(=O)[C@H](CCCCN)NC(=O)[C@H](CC(C)C)NC(=O)[C@H](CO)NC(=O)[C@@H](N)Cc1ccccc1)C(=O)N[C@@H](CCCNC(=N)N)C(=O)N[C@@H](Cc1ccc(O)cc1)C(=O)N[C@@H](CCCCN)C(=O)N[C@@H](CCCNC(=N)N)C(=O)N[C@@H](CCC(N)=O)C(=O)NCC(=O)N[C@@H](C)C(=O)N[C@@H](C)C(=O)N[C@@H](CCCNC(=N)N)C(=O)N[C@@H](Cc1ccccc1)C(N)=O | broth dilution | ATCC 19606 |  |  |  |  | 6.3 µM
CC[C@H](C)[C@H](NC(=O)[C@@H](CCCNC(=N)N)NC(=O)[C@H](CCCNC(=N)N)NC(=O)[C@H](CO)NC(=O)[C@H](Cc1c[nH]c2ccccc12)NC(=O)[C@H](CCCNC(=N)N)NC(=O)[C@@H]1CCCN1C(=O)[C@H](CCCNC(=N)N)NC(=O)[C@@H]1CCCN1C(=O)[C@H](CC(C)C)NC(=O)[C@H](Cc1ccc(O)cc1)NC(=O)[C@@H]1CCCN1C(=O)[C@@H]1CCCN1C(=O)[C@H](CCCCN)NC(=O)[C@H](CC(=O)O)NC(=O)[C@@H](N)C(C)C)C(=O)N[C@@H](Cc1ccc(O)cc1)C(=O)N[C@@H](CC(N)=O)C(=O)N[C@H](CCCNC(=N)N)C(N)=O | broth microdilution | DSM 30008 |  | 18 h | 37 °C | 25% MHB2 | 32 µg/mL
CC(C)C[C@H](NC(=O)[C@H](CC(C)C)NC(=O)[C@H](CCCCN)NC(=O)[C@H](Cc1ccccc1)NC(=O)[C@@H](NC(=O)[C@H](CCCNC(=N)N)NC(=O)[C@H](CCCCN)NC(=O)[C@H](Cc1c[nH]c2ccccc12)NC(=O)[C@@H](NC(=O)[C@@H](N)CCCNC(=N)N)C(C)C)C(C)C)C(=O)N[C@@H](CCCCN)C(=O)N[C@@H](CCCNC(=N)N)C(=O)N[C@@H](Cc1ccc(O)cc1)C(=O)N[C@@H](Cc1c[nH]c2ccccc12)C(=O)N[C@@H](CCCNC(=N)N)C(N)=O | broth microdilution | 18 |  |  |  |  | 1.25 µg/mL
CC[C@H](C)[C@H](NC(=O)[C@@H](CCCNC(=N)N)NC(=O)[C@H](CCCNC(=N)N)NC(=O)[C@H](Cc1ccc(O)cc1)NC(=O)[C@H](Cc1c[nH]c2ccccc12)NC(=O)[C@H](CCCNC(=N)N)NC(=O)[C@@H]1CCCN1C(=O)[C@H](CCCNC(=N)N)NC(=O)[C@@H]1CCCN1C(=O)[C@H](CC(C)C)NC(=O)[C@H](Cc1ccc(O)cc1)NC(=O)[C@@H]1CCCN1C(=O)[C@@H]1CCCN1C(=O)[C@H](CCCCN)NC(=O)[C@H](CC(=O)O)NC(=O)[C@@H](N)C(C)C)C(=O)N[C@@H](Cc1ccc(O)cc1)C(=O)N[C@@H](CC(N)=O)C(=O)N[C@H](CCCNC(=N)N)C(N)=O | broth microdilution | DSM 30008 |  | 18 h | 37 °C | 25% MHB2 | 16 µg/mL
CCCCCCCC(=O)N[C@@H](CCN)C(=O)N[C@H](C(=O)N[C@@H](CCN)C(=O)N[C@H]1CCNC(=O)[C@H]([C@@H](C)O)NC(=O)[C@H](CCN)NC(=O)[C@H](CCN)NC(=O)[C@H](CC(C)C)NC(=O)[C@@H](Cc2ccccc2F)NC(=O)[C@H](CCN)NC1=O)[C@@H](C)O | broth microdilution | colistin-resistant isolates |  |  |  |  | 0.5 to 1 µg/mL
CCn1c(-c2ccc(F)cc2)c(-c2ccc(F)cc2)n(CCOC)c1=[Se] | broth microdilution | carbapenem-resistant |  | 24 h |  |  | > 40 µM
CCCCCCCC(=O)N[C@@H](CCN)C(=O)N[C@H](C(=O)N[C@@H](CCN)C(=O)N[C@H]1CCNC(=O)[C@H]([C@@H](C)O)NC(=O)[C@H](CCN)NC(=O)[C@H](CCN)NC(=O)[C@H](CC(C)C)NC(=O)[C@@H](Cc2ccccc2)NC(=O)[C@H](CCN)NC1=O)[C@@H](C)O | CLSI broth microdilution | 5075 | CAMHB | 20 h | 37 °C |  | 0.5 µg/mL
CC[C@H](C)[C@H](NC(=O)[C@@H](CCCNC(=N)N)NC(=O)[C@H](CCCNC(=N)N)NC(=O)[C@@H](NC(=O)[C@H](Cc1c[nH]c2ccccc12)NC(=O)[C@H](CCCNC(=N)N)NC(=O)[C@@H]1CCCN1C(=O)[C@H](CCCNC(=N)N)NC(=O)[C@@H]1CCCN1C(=O)[C@H](CC(C)C)NC(=O)[C@H](Cc1ccc(O)cc1)NC(=O)[C@@H]1CCCN1C(=O)[C@@H]1CCCN1C(=O)[C@H](CCCCN)NC(=O)[C@H](CC(=O)O)NC(=O)[C@@H](N)C(C)C)[C@@H](C)O)C(=O)N[C@@H](Cc1ccc(O)cc1)C(=O)N[C@@H](CC(N)=O)C(=O)N[C@H](CCCNC(=N)N)C(N)=O | broth microdilution | DSM 30008 |  | 18 h | 37 °C | 25% MHB2 | 16 µg/mL
CCCCCCCC(=O)N[C@@H](CCN)C(=O)N[C@H](C(=O)N[C@@H](CCN)C(=O)N[C@H]1CCNC(=O)[C@H]([C@@H](C)O)NC(=O)[C@H](CCN)NC(=O)[C@H](CCN)NC(=O)[C@H](Cc2ccc(Cl)cc2)NC(=O)[C@@H](CC(C)C)NC(=O)[C@H](CCN)NC1=O)[C@@H](C)O | broth microdilution | ATCC 19606, colistin-susceptible |  |  |  |  | 0.125 to 0.5 µg/mL
CC[C@H](C)[C@H](NC(=O)[C@@H](CCCNC(=N)N)NC(=O)[C@H](CCCNC(=N)N)NC(=O)[C@@H]1CCCN1C(=O)[C@@H]1CCCN1C(=O)[C@H](CCCNC(=N)N)NC(=O)[C@@H]1CCCN1C(=O)[C@H](CCCNC(=N)N)NC(=O)[C@@H]1CCCN1C(=O)[C@H](CC(C)C)NC(=O)[C@H](Cc1cc(I)c(O)c(I)c1)NC(=O)[C@@H]1CCCN1C(=O)[C@@H]1CCCN1C(=O)[C@H](CCCCN)NC(=O)[C@H](CC(=O)O)NC(=O)[C@@H](N)C(C)C)C(=O)N[C@@H](Cc1ccc(O)cc1)C(=O)N[C@@H](CC(N)=O)C(=O)N[C@H](CCCNC(=N)N)C(N)=O | broth microdilution | DSM 30008 |  | 18 h | 37 °C | 25% MHB2 | 128 µg/mL
CN[C@H](CC(C)C)C(=O)N[C@H]1C(=O)N[C@@H](CC(N)=O)C(=O)N[C@H]2C(=O)N[C@H]3C(=O)N[C@H](C(=O)N[C@H](C(=O)NCc4cn(CC(=O)N[C@H](C(=O)N[C@@H](CCN)C(=O)N[C@H]5CCNC(=O)[C@H]([C@@H](C)O)NC(=O)[C@H](CCN)NC(=O)[C@H](CCN)NC(=O)[C@H](CC(C)C)NC(=O)[C@@H](CC(C)C)NC(=O)[C@H](CCN)NC5=O)[C@@H](C)O)nn4)c4cc(O)cc(O)c4-c4cc3ccc4O)[C@H](O)c3ccc(c(Cl)c3)Oc3cc2cc(c3O[C@@H]2O[C@H](CO)[C@@H](O)[C@H](O)[C@H]2O[C@H]2C[C@](C)(N)[C@H](O)[C@H](C)O2)Oc2ccc(cc2Cl)[C@H]1O | broth microdilution | BAA-747 |  |  |  |  | 13 µM
CC[C@H](C)[C@H](NC(=O)[C@H](CCCCN)NC(=O)[C@H](CCCCN)NC(=O)[C@H](Cc1ccccc1)NC(=O)[C@H](Cc1ccccc1)NC(=O)[C@H](CCCCN)NC(=O)[C@H](CCCCN)NC(=O)[C@H](Cc1ccccc1)NC(=O)[C@H](CCCNC(=N)N)NC(=O)[C@@H](N)CCCCN)C(=O)N[C@@H](CCCCN)C(=O)N[C@@H](CCCCN)C(=O)N[C@@H](CO)C(=O)N[C@H](C(=O)N[C@@H](CCCCN)C(=O)N[C@@H](CCCCN)C(=O)N[C@@H](CCCNC(=N)N)C(=O)N[C@H](C(=O)N[C@@H](CCCCN)C(=O)N[C@@H](CCCCN)C(=O)N[C@@H](CC(C)C)C(=O)N[C@@H](Cc1ccccc1)C(=O)N[C@@H](CCCCN)C(=O)N[C@@H](CCCCN)C(=O)N1CCC[C@H]1C(=O)N[C@@H](CCCNC(=N)N)C(=O)N[C@H](C(=O)N[C@H](C(=O)N1CCC[C@H]1C(=O)N[C@H](C(=O)N[C@@H](CO)C(=O)N[C@H](C(=O)N1CCC[C@H]1C(=O)N[C@@H](Cc1ccccc1)C(=O)O)[C@@H](C)CC)[C@@H](C)CC)[C@@H](C)CC)C(C)C)C(C)C)C(C)C | broth microdilution | A1, clinical isolate | Mueller-Hinton broth | 20 h | 37 °C |  | 4 µg/mL
CC1(C)[C@H](NC(=O)/C(=N\OCc2cc(=O)c(O)cn2O)c2csc(N)n2)C(=O)N1OS(=O)(=O)O | agar dilution | ATCC 19606 |  |  |  |  | 0.5 µg/mL
CCCCCCCC(=O)N[C@@H](CCN)C(=O)N[C@H](C(=O)N[C@@H](CCN)C(=O)N[C@H]1CCNC(=O)[C@H]([C@@H](C)O)NC(=O)[C@H](CCN)NC(=O)[C@H](CCN)NC(=O)[C@H](C)NC(=O)[C@@H](Cc2ccccc2)NC(=O)[C@H](CCN)NC1=O)[C@@H](C)O | broth microdilution | ATCC 19606 |  | 20 h | 37 °C |  | 1 µg/mL
CCCCCCCC(=O)N[C@@H](CCN)C(=O)N[C@H](C(=O)N[C@@H](CCN)C(=O)N[C@H]1CCNC(=O)[C@H]([C@@H](C)O)NC(=O)[C@H](CCN)NC(=O)[C@H](CCN)NC(=O)[C@H](CC(C)C)NC(=O)[C@@H](Cc2ccccc2)NC(=O)[C@H](CCN)NC1=O)[C@@H](C)O | broth microdilution | colistin-resistant isolates |  |  |  |  | 8 µg/mL

A few entries again:
SMILES | method | strain | sample | time | temperature | setting | MIC
CC(C)C[C@H](NC(=O)[C@H](CC(C)C)NC(=O)[C@H](CCCCN)NC(=O)[C@H](Cc1ccccc1)NC(=O)[C@@H](NC(=O)[C@H](CCCNC(=N)N)NC(=O)[C@H](CCCCN)NC(=O)[C@H](Cc1c[nH]c2ccccc12)NC(=O)[C@@H](NC(=O)[C@@H](N)CCCNC(=N)N)C(C)C)C(C)C)C(=O)N[C@@H](CCCCN)C(=O)N[C@@H](CCCNC(=N)N)C(=O)N[C@@H](Cc1ccc(O)cc1)C(=O)N[C@@H](Cc1c[nH]c2ccccc12)C(=O)N[C@@H](CCCNC(=N)N)C(N)=O | broth microdilution | 18 |  |  |  |  | 1.25 µg/mL
CN[C@H](CC(C)C)C(=O)N[C@H]1C(=O)N[C@@H](CC(N)=O)C(=O)N[C@H]2C(=O)N[C@H]3C(=O)N[C@H](C(=O)N[C@H](C(=O)O)c4cc(O)cc(O)c4-c4cc3ccc4O)[C@H](O)c3ccc(c(Cl)c3)Oc3cc2cc(c3O[C@@H]2O[C@H](CO)[C@@H](O)[C@H](O)[C@H]2O[C@H]2C[C@](C)(NCc3ccc(OCc4cn(CC(=O)N[C@H](C(=O)N[C@@H](CCN)C(=O)N[C@H]5CCNC(=O)[C@H]([C@@H](C)O)NC(=O)[C@H](CCN)NC(=O)[C@H](CCN)NC(=O)[C@H](CC(C)C)NC(=O)[C@@H](CC(C)C)NC(=O)[C@H](CCN)NC5=O)[C@@H](C)O)nn4)c(OC)c3)[C@H](O)[C@H](C)O2)Oc2ccc(cc2Cl)[C@H]1O | broth microdilution | BAA-747 |  |  |  |  | 12 µM
CC[C@H](C)[C@H](NC(=O)[C@@H](CCCNC(=N)N)NC(=O)[C@H](CCCNC(=N)N)NC(=O)[C@H](CO)NC(=O)[C@H](Cc1c[nH]c2ccccc12)NC(=O)[C@H](CCCNC(=N)N)NC(=O)[C@@H]1CCCN1C(=O)[C@H](CCCNC(=N)N)NC(=O)[C@@H]1CCCN1C(=O)[C@H](CC(C)C)NC(=O)[C@H](Cc1ccc(O)cc1)NC(=O)[C@@H]1CCCN1C(=O)[C@@H]1CCCN1C(=O)[C@H](CCCCN)NC(=O)[C@H](CC(=O)O)NC(=O)[C@@H](N)C(C)C)C(=O)N[C@@H](Cc1ccc(O)cc1)C(=O)N[C@@H](CC(N)=O)C(=O)N[C@H](CCCNC(=N)N)C(N)=O | broth microdilution | DSM 30008 |  | 18 h | 37 °C | 25% MHB2 | 32 µg/mL
